Assay results collected from several papers.
Each numbered part is a random draw from the data of one study; scales do not carry over between parts. Positions count from the first letter of the parent shown.

Set 1 — target: ATF5, bZIP domain (human); technique: DHFR protein complementation; matrix: yeast; relative to: wild-type JUN-FOS pair; reading: higher = stronger binding
Setting: single substitutions, most at no-binding floor
Starting sequence: JUN, bZIP domain (human); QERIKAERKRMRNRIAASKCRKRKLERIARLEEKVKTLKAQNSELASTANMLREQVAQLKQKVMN; partner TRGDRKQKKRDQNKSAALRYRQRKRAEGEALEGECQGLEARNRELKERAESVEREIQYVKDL
Substitution	binding fitness
E44T	-1.5 natural log
A46W	-1.54 natural log
Q55E	-1.43 natural log
R30C	-1.33 natural log

Set 2 — technique: DHFR PCA, deep sequencing; matrix: yeast; with: (+)-ABA 4.8 µM; relative to: wild-type fitted maximum; reading: higher = stronger binding
Target: ABI1, truncated, D143A, DHFR fusion (Arabidopsis thaliana)
Setting: methotrexate growth selection, single substitutions
Starting sequence: PYL1, truncated, DHFR fusion (Arabidopsis thaliana); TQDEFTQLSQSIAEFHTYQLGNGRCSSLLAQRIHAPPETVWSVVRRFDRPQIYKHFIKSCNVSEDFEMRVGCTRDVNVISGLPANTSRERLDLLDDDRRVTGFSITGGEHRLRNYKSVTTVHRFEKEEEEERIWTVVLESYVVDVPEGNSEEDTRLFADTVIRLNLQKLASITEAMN; partner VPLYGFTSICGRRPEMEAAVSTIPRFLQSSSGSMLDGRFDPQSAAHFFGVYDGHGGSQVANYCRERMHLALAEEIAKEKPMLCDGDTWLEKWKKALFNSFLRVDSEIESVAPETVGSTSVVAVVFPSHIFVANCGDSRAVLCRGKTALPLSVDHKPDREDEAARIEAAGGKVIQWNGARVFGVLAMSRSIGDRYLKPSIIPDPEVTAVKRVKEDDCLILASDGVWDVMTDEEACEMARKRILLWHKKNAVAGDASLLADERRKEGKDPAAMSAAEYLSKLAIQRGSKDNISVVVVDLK
Substitution	relative binding score
E130N	79%
S150D	56.4%
F47I	-24.5%
C25Y	-27%

Set 3 — target: CCNE1, cyclin fold, Cln2 fusion (human); technique: yeast growth competition, sequencing; matrix: yeast; setting: strong parent motif; relative to: not given; reading: higher = stronger binding
Starting sequence: BRCA2 docking peptide (human); PSIKRNLLNEFDR
Substitution	normalised enrichment score
PSIKRNYLNEFDR [L7Y]	-0.118
PSIKRNLLNEEDR [F11E]	-0.0786
PTIKRNLLNEFDR [S2T]	1.51
PSIKRNPLNEFDR [L7P]	-0.385

Further values, each from its own experiment
Substance	target	assay	test system	conditions	scale	measurement	result
PhoQ, residues 284 288 289 292 302 303 SIHLQL	PhoP, residues 12 14 15 18 19 LWHVM (Escherichia coli, UniProt P23836)	Sort-seq, item: YFP reporter	E. coli	PhoQ-PhoP variant library, with: 10 µM Mg2+	relative to: high Mg2+ state, higher = stronger signaling	fold induction	1.13
